Measured values collected from several papers.
Protocols differ between the studies behind these lines. ≈ marks a conversion by molar mass, not a printed value.
Organism: Pseudomonas aeruginosa

| SMILES | test | system | conditions | how to read | quantity | value |
| --- | --- | --- | --- | --- | --- | --- |
| C[C@H](NC(=O)[C@@H]1CCCN1C(=O)[C@@H]1CCCN1C(=O)[C@@H]1CCCN1C(=O)[C@@H]1CCCN1C(=O)[C@H](CCCCN)NC(=O)[C@H](CCCCN)NC(=O)[C@H](CCCCN)NC(=O)[C@@H]1CCCN1C(=O)[C@H](CCCCN)NC(=O)[C@@H](N)CC(=O)O)C(=O)NCC(=O)N1CCC[C@H]1C(=O)N1CCC[C@H]1C(=O)N1CCC[C@H]1C(=O)N1CCC[C@H]1C(=O)N1CCC[C@H]1C(=O)N1CCC[C@H]1C(=O)N1CCC[C@H]1C(=O)N1CCC[C@H]1C(=O)N1CCC[C@H]1C(=O)NCC(=O)N1CCC[C@H]1C(=O)N1CCC[C@H]1C(=O)N1CCC[C@H]1C(=O)N1CCC[C@H]1C(=O)NCC(=O)N1CCC[C@H]1C(=O)O |  | ATCC 9027, Galleria mellonella larvae | 6.1 µmol/kg, 30 min post infection |  | median survival | 144 h |
| CC[C@H](C)[C@H](NC(=O)[C@H](CCCNC(=N)N)NC(=O)[C@H](CCCNC(=N)N)NC(=O)[C@H](CC(C)C)NC(=O)[C@H](CCC(N)=O)NC(=O)[C@@H](N)C(C)C)C(=O)N[C@@H](CCCNC(=N)N)C(=O)N[C@H](C(=O)N[C@@H](Cc1c[nH]c2ccccc12)C(=O)N[C@H](C(=O)N[C@H](C(=O)N[C@@H](CCCNC(=N)N)C(N)=O)[C@@H](C)CC)C(C)C)C(C)C | propidium iodide staining | gfp-tagged | 10 µg/mL, added at start, shear flow |  | biofilm inhibition | 12.7% |
| C[C@@](O)(C(F)F)[C@H](NC(=O)c1ccc(C#CC#CC2CC2)cc1)C(=O)NO | agar dilution | susceptible clinical isolates |  |  | MIC90 | 0.5 µg/mL (≈ 1.33 µM) |
| CC[C@H](C)[C@H](NC(=O)CNC(=O)[C@H](CCSC)NC(=O)[C@H](CC(C)C)NC(=O)[C@H](CCCCN)NC(=O)[C@@H](N)CC(C)C)C(=O)N[C@H](C(=O)N[C@@H](CCCCN)C(=O)N[C@@H](CCCCN)C(=O)N[C@H](C(=O)N[C@@H](CC(C)C)C(=O)N[C@@H](CCCCN)C(=O)N[C@@H](C)C(=O)N[C@@H](CC(C)C)C(N)=O)C(C)C)C(C)C |  | PA14 | concentration not given | relative to: MIC of template peptide over MIC | fold activity increase | 4 fold |
| CC[C@H](C)[C@H](NC(=O)[C@H](CCCCN)NC(=O)[C@H](CCCCN)NC(=O)[C@H](CC(C)C)NC(=O)[C@H](CCCCN)NC(=O)[C@H](CCC(=O)O)NC(=O)[C@H](CCCCN)NC(=O)[C@@H](NC(=O)[C@H](CCCCN)NC(=O)[C@H](CC(N)=O)NC(=O)[C@H](CCCNC(=N)N)NC(=O)[C@H](Cc1ccccc1)NC(=O)[C@H](CCCCN)NC(=O)[C@H](CCCNC(=N)N)NC(=O)[C@H](CC(C)C)NC(=O)[C@H](CCCNC(=N)N)NC(=O)[C@H](CCCCN)NC(=O)[C@H](CCCNC(=N)N)NC(=O)[C@H](CC(C)C)NC(=O)CN)[C@@H](C)CC)C(=O)NCC(=O)N[C@@H](CCC(N)=O)C(=O)N[C@@H](CCCCN)C(=O)N[C@H](C(=O)N[C@@H](CCC(N)=O)C(=O)NCC(=O)N[C@@H](Cc1ccccc1)C(=O)N[C@H](C(=O)N1CCC[C@H]1C(=O)N[C@@H](CCCCN)C(=O)N[C@@H](CC(C)C)C(=O)N[C@@H](C)C(=O)N1CCC[C@H]1C(=O)N[C@@H](CCCNC(=N)N)C(=O)N[C@H](C(=O)N[C@@H](CC(=O)O)C(=O)N[C@@H](Cc1ccc(O)cc1)C(=O)O)[C@@H](C)O)C(C)C)[C@@H](C)CC | inhibition zone method | 11082616, LB 0.8% agar with 154 mM NaCl | overnight, 37 °C |  | lethal concentration | 2.91 µM |
| CC[C@H](C)[C@H](NC(=O)[C@H](Cc1c[nH]cn1)NC(=O)[C@H](CCCCNC(=O)[C@@H](NC(=O)[C@H](CCCCN)NC(=O)CSC[C@H](NC(=O)[C@H](Cc1ccccc1)NC(=O)[C@H](CCCCNC(=O)[C@H](CC(C)C)NC(=O)[C@@H]1CCCN1C(=O)[C@H](CCCCN)NC(=O)C[C@@H]1O[C@@H](C)[C@@H](O)[C@@H](O)[C@@H]1O)NC(=O)[C@H](CC(C)C)NC(=O)[C@@H]1CCCN1C(=O)[C@H](CCCCN)NC(=O)c1ccc(O[C@@H]2O[C@H](CO)[C@H](O)[C@H](O)[C@H]2O)cc1)C(N)=O)[C@@H](C)CC)NC(=O)[C@@H](NC(=O)[C@H](CCCCN)NC(=O)CSC[C@H](NC(=O)[C@H](Cc1ccccc1)NC(=O)[C@H](CCCCNC(=O)[C@H](CC(C)C)NC(=O)[C@@H]1CCCN1C(=O)[C@H](CCCCN)NC(=O)C[C@@H]1O[C@@H](C)[C@@H](O)[C@@H](O)[C@@H]1O)NC(=O)[C@H](CC(C)C)NC(=O)[C@@H]1CCCN1C(=O)[C@H](CCCCN)NC(=O)c1ccc(O[C@@H]2O[C@H](CO)[C@H](O)[C@H](O)[C@H]2O)cc1)C(N)=O)[C@@H](C)CC)C(N)=O | biofilm formation | PAO1 | 24 h |  | MBIC | 30 µM |
| CC[C@H](C)[C@H](NC(=O)[C@H](CCCCN)NC(=O)[C@H](CCCCN)NC(=O)[C@H](CC(C)C)NC(=O)[C@H](CCCCN)NC(=O)[C@H](CCC(=O)O)NC(=O)[C@H](CCCCN)NC(=O)[C@@H](NC(=O)[C@H](CCCCN)NC(=O)[C@H](CC(N)=O)NC(=O)[C@H](CCCNC(=N)N)NC(=O)[C@H](Cc1ccccc1)NC(=O)[C@H](CCCCN)NC(=O)[C@H](CCCNC(=N)N)NC(=O)[C@H](CC(C)C)NC(=O)[C@H](CCCNC(=N)N)NC(=O)[C@H](CCCCN)NC(=O)[C@H](CCCNC(=N)N)NC(=O)[C@H](CC(C)C)NC(=O)[C@@H](N)CCCNC(=N)N)[C@@H](C)CC)C(=O)NCC(=O)N[C@@H](CCC(N)=O)C(=O)N[C@@H](CCCCN)C(=O)N[C@H](C(=O)N[C@@H](CCC(N)=O)C(=O)NCC(=O)N[C@@H](Cc1ccccc1)C(=O)N[C@H](C(=O)N1CCC[C@H]1C(=O)N[C@@H](CCCCN)C(=O)N[C@@H](CC(C)C)C(=O)N[C@@H](CCC(N)=O)C(=O)N1CCC[C@H]1C(=O)N[C@@H](CO)C(=O)N[C@@H](CCCCN)C(=O)N[C@@H](CCC(N)=O)C(=O)N[C@@H](CO)C(=O)O)C(C)C)[C@@H](C)CC | inhibition zone | DH |  |  | lethal concentration | 4.34 µM |
| CC(C)C[C@H](NC(=O)[C@@H]1CSCC(=O)N[C@@H](CCCCN)C(=O)N[C@@H](CC(C)C)C(=O)N[C@@H](CC(C)C)C(=O)N[C@H]2CCCCNC(=O)[C@H](CC(C)C)NC(=O)[C@H](CC(C)C)NC(=O)[C@H](CCCCN)NC(=O)CSC[C@H](NC(=O)[C@H](CC(C)C)NC(=O)[C@H](CC(C)C)NC(=O)[C@H](CCCCN)NC2=O)C(=O)N[C@@H](CCCCN)C(=O)N[C@@H](CCCCN)C(=O)N[C@@H](CCCCN)C(=O)N1)C(N)=O |  | PAO1 | 24 to 25 h |  | minimal biofilm inhibitory concentration | 32 µg/mL |
| CC[C@H](C)[C@H](NC(=O)[C@H](CCCCN)NC(=O)[C@H](CCCCN)NC(=O)[C@H](CC(C)C)NC(=O)[C@H](CCCCN)NC(=O)[C@H](CCC(=O)O)NC(=O)[C@H](CCCCN)NC(=O)[C@@H](NC(=O)[C@H](CCCCN)NC(=O)[C@H](CC(N)=O)NC(=O)[C@H](CCCNC(=N)N)NC(=O)[C@H](Cc1ccccc1)NC(=O)[C@H](CCCCN)NC(=O)[C@H](CCCNC(=N)N)NC(=O)[C@H](CC(C)C)NC(=O)[C@H](CCCNC(=N)N)NC(=O)[C@H](CCCCN)NC(=O)[C@H](CCCNC(=N)N)NC(=O)[C@@H](N)CC(C)C)[C@@H](C)CC)C(=O)NCC(=O)N[C@@H](CCC(N)=O)C(=O)N[C@@H](CCCCN)C(=O)N[C@H](C(=O)N[C@@H](CCC(N)=O)C(=O)NCC(=O)N[C@@H](Cc1ccccc1)C(=O)N[C@H](C(=O)N1CCC[C@H]1C(=O)N[C@@H](CCCCN)C(=O)N[C@@H](CC(C)C)C(=O)O)C(C)C)[C@@H](C)CC | inhibition zone method | 11082603, LB 0.8% agar with 154 mM NaCl | overnight, 37 °C |  | lethal concentration | 2.66 µM |
| CCCCCCCCCC(=O)NCC(=O)N[C@@H](CC(C)C)C(=O)N[C@@H](CC(C)C)C(=O)N[C@@H](CCCCN)C(=O)N[C@@H](CCCNC(=N)N)C(=O)N[C@H](C(=O)N[C@@H](CCCCN)C(=O)N[C@H](C(=O)N[C@@H](CC(C)C)C(=O)N[C@@H](CC(C)C)C(N)=O)[C@@H](C)O)[C@@H](C)CC | checkerboard | ATCC 27853 | added: polymyxin B |  | FIC index | 0.375 |

Some of these lines once more:
| SMILES | test | system | conditions | how to read | quantity | value |
| --- | --- | --- | --- | --- | --- | --- |
| CC[C@H](C)[C@H](NC(=O)[C@H](CCCCN)NC(=O)[C@H](CCCCN)NC(=O)[C@H](CC(C)C)NC(=O)[C@H](CCCCN)NC(=O)[C@H](CCC(=O)O)NC(=O)[C@H](CCCCN)NC(=O)[C@@H](NC(=O)[C@H](CCCCN)NC(=O)[C@H](CC(N)=O)NC(=O)[C@H](CCCNC(=N)N)NC(=O)[C@H](Cc1ccccc1)NC(=O)[C@H](CCCCN)NC(=O)[C@H](CCCNC(=N)N)NC(=O)[C@H](CC(C)C)NC(=O)[C@H](CCCNC(=N)N)NC(=O)[C@H](CCCCN)NC(=O)[C@H](CCCNC(=N)N)NC(=O)[C@H](CC(C)C)NC(=O)[C@@H](N)CCCNC(=N)N)[C@@H](C)CC)C(=O)NCC(=O)N[C@@H](CCC(N)=O)C(=O)N[C@@H](CCCCN)C(=O)N[C@H](C(=O)N[C@@H](CCC(N)=O)C(=O)NCC(=O)N[C@@H](Cc1ccccc1)C(=O)N[C@H](C(=O)N1CCC[C@H]1C(=O)N[C@@H](CCCCN)C(=O)N[C@@H](CC(C)C)C(=O)N[C@@H](CCC(N)=O)C(=O)N1CCC[C@H]1C(=O)N[C@@H](CO)C(=O)N[C@@H](CCCCN)C(=O)N[C@@H](CCC(N)=O)C(=O)N[C@@H](CO)C(=O)O)C(C)C)[C@@H](C)CC | inhibition zone | DH |  |  | lethal concentration | 4.34 µM |
